Published values from different studies.
Protocols differ between the studies behind these lines. Values joined by “and” are separate records of one study, mostly repeats; a detail may differ. ± gives the spread as reported.

Compound	target or system	assay	test system	setting	scale	quantity	result
C=CC(=O)Nc1cc(Nc2nccc(Nc3cc(Cl)c(F)cc3C(C)(C)O)n2)c(OC)cc1N1CC[C@@H](N(C)C)C1			mice, NCI-H2073 vs LXF 2478 xenografts	highest clinically relevant dose, unit not given	relative to: NCI-H2073 minus LXF 2478	growth rate difference	-0.0037
C[C@H]1C[C@H]2CSC(N)=N[C@@]2(c2nc(NC(=O)c3ccc(OC(F)F)cn3)cs2)CO1			healthy adults, fed, plasma	oral, 200 mg single dose, 24 h	relative to: baseline, placebo-adjusted	plasma Aβ1-40 change	-83.5%
OC(CCN1CCCCC1)(c1ccccc1)C1CC2C=CC1C2 (stereo not drawn)		resting-state EEG	healthy elderly humans	oral, 2 mg, eyes open, LS mean	relative to: baseline	change in EEG Beta3-power Fz-Cz	3.4%
Cc1ccc([C@@H]2O[C@H](CO)[C@@H](O)[C@H](O)[C@H]2O)cc1Cc1ccc(-c2ccc(F)cc2)s1			Japanese type 2 diabetes patients	100 mg, day 1	relative to: day 0	change in 24-h mean serum insulin	-2.2 µU/mL
CC(C)C[C@H](NC(=O)[C@@H](Cc1c[nH]c2ccccc12)NC(=O)[C@H](Cc1ccc(O)cc1)NC(=O)[C@H](CO)NC(=O)[C@H](Cc1c[nH]c2ccccc12)NC(=O)[C@H](Cc1c[nH]cn1)NC(=O)[C@@H]1CCC(=O)N1)C(=O)N[C@@H](CCCNC(=N)N)C(=O)N1CCC[C@H]1C(=O)NCC(N)=O			Chinese children, central precocious puberty, serum	intramuscular, 22.5 mg day 1, month 6, month 3		basal FSH level	1.16 IU/L
O=C(O)CNC(=O)Cc1ccccc1			ventricular cardiomyocytes, C57BL/6 mouse	dose not given, 0.324 s		sarcomere length	1.72 µm
CN(C)C(=O)Oc1cccc([N+](C)(C)C)c1		neuromuscular block reversal	rat	dose not given, 2.5 (unit not given), together with: cisatracurium	relative to: T1 twitch	train-of-four ratio	4.15
CN(C(=O)n1cnc(-c2ccc[n+]([O-])c2)c1)C1CCCCC1			mice, formalin paw test	0.3 mg/kg, late phase, together with: anandamide 5 mg/kg i.p.	direction not given	licking time score	7
c1ccc(-c2n[nH]cc2-c2ccnc3ccccc23)nc1		kinase binding, competitor, MIB/MS competition, measured: TOR1	Candida albicans cell lysate	10 µM	relative to: DMSO	log2 fold change	0.732
Cn1cc(Nc2nccc(-c3ccc4c(c3)CN(C3COC3)CC[C@H]4NC(=O)c3cn(C(C)(C)C)nn3)n2)cn1		measured: Fcγ receptor-mediated phagocytosis	splenic B cells, mice	30 mg/kg, IgD-activated in vivo	relative to: vehicle, direction not given	pathway activation z-score	2.5
CC1(C)CCC(CN2CCN(c3ccc(C(=O)NS(=O)(=O)c4ccc(NCC5CCOCC5)c([N+](=O)[O-])c4)c(Oc4cnc5[nH]ccc5c4)c3)CC2)=C(c2ccc(Cl)cc2)C1		cell kill, PI exclusion flow cytometry	neoplastic T lymphocytes, human, thawed lymph node	24 h		EC50	6.3 nM
CC(C)[C@H](NC(=O)[C@H](Cc1ccc(O)cc1)NC(=O)[C@H](Cc1ccc(O)cc1)NC(=O)[C@@H]1CCCN1C(=O)[C@H](CCC(=O)O)NC(=O)[C@H](CCC(=O)O)NC(=O)[C@H](Cc1c[nH]c2ccccc12)NC(=O)[C@@H]1CCCN1C(=O)[C@@H](NC(=O)[C@H](CCC(N)=O)NC(=O)c1ccc2c(c1)C(=O)OC21c2ccc(O)cc2Oc2cc(O)ccc21)C(C)C)C(=O)N[C@H](C(=O)N[C@@H](CCCCN)C(=O)N[C@@H](CCCCN)C(=O)N[C@@H](CO)C(=O)N[C@@H](CO)C(=O)NCC(=O)NCC(N)=O)C(C)C		nerve discrimination	head and neck surgery patients	500 mg	relative to: white light	surgeons rating much improved	21.4%
O=C(O)/C=C/c1nccc2c3ccccc3n(Cc3ccc(Br)cc3)c12			mouse, acute hyperuricaemia model	oral, 2 mg/kg		serum uric acid	881 µM
Cc1cc(C)c(CNC(=O)c2cc(Cl)c3c(c2C)O[C@@](C)([C@H]2CC[C@H](N(C)C)CC2)O3)c(=O)[nH]1		IWG criteria, CR or PR or SD	relapsed/refractory PTCL-NOS patients	dose not given		disease control rate	62%
COc1cc2cc(-c3ccc(CC(=O)Nc4cc(C(C)(C)C(F)(F)F)no4)cn3)cnc2cc1OC		RECIST v1.1	RET-altered advanced solid tumour patients	oral, 20 mg once daily, phase I		objective response rate	0%
Cc1n[nH]c2ccc(-c3cc(OC[C@@H](N)Cc4ccccc4)cnc3-c3ccoc3)cc12		kinase binding, competitor, MIB/MS competition, measured: RCK2	Candida albicans cell lysate	1 µM	relative to: DMSO	log2 fold change	-0.109
C=CCn1c(=O)c2cnc(Nc3ccc(N4CCN(C)CC4)cc3)nc2n1-c1ccc2c(n1)[C@@](O)(CC)CC2			BALB/c nude mouse, LoVo xenograft	oral, 80 mg/kg once daily, 5 d on 2 d off ×3, day 24	relative to: vehicle	tumour volume	74.5%
NNC(=O)c1ccncc1		ELISA	Mycobacterium marinum-infected mice, skin	intraduodenal, 10 mg/kg three times daily, 3 days post infection		TNF-α level	136 pg/mL and 182 pg/mL
C[C@@H](NC(=O)N1C(=O)[C@H](Cc2ccnc(N)c2)[C@H]1C(=O)O)C1CCCCC1			human, plasma	continuous intravenous infusion, 1.0 mg/kg/h, days 1 to 6 of 5-day infusion, median	relative to: baseline	time to maximum PT over baseline	120 h
CN[C@@H](C)C(=O)N[C@H]1CN(S(=O)(=O)c2cccc(S(=O)(=O)N3CC[C@H]4CC[C@@H](C(=O)NC(c5ccccc5)c5ccccc5)N4C(=O)[C@@H](NC(=O)[C@H](C)NC)C3)c2)CC[C@H]2CC[C@@H](C(=O)NC(c3ccccc3)c3ccccc3)N2C1=O		RECIST 1.1	advanced pancreatic cancer patients	dose not given, efficacy-evaluable, together with: AG		disease control rate	60%
Cn1cc([C@H]2C[C@H]3CSC(N)=N[C@@]3(c3ccc(F)cc3F)CO2)cn1		measured: Aβx-42	Mus musculus wild-type, brain	subcutaneous, 10 mg/kg, 18 h		Aβ42 level	0.53 ng/g
COc1nnc2ccc(N3CCC(c4ccc(OCCN5CCN(C)C(=O)[C@H]5C)cc4)CC3)nn12			cancer patients, plasma	2 to 40 mg	relative to: predose	plasma MIP-1β level	decreased
C=Cc1ccccc1B(O)O		iEDDA reaction	methanol/water	21 °C, together with: tetrazine		activation free energy ΔG‡	84.2 kJ/mol
CCO[C@H]1CCN(Cc2c(OC)cc(C)c3[nH]ccc23)[C@H](c2ccc(C(=O)O)cc2)C1			PNH patients, blood	oral, 25 mg then 100 mg, week 8, mean percent change	relative to: baseline	PNH RBC clone size	187%

Compound	target or system	assay	test system	setting	scale	quantity	result
CN(C)C(=O)c1cc2cnc(Nc3ccc(N4CCNCC4)cn3)nc2n1C1CCCC1			HR+/HER2− advanced breast cancer patients	dose not given, region Latin America		median PFS2	49.2 months
COCCOc1cnc2ccn([C@H](C)c3nnc4c(F)cc(-c5cnn(C)c5)cn34)c(=O)c2c1			advanced solid tumour patients	dose not given		median duration of partial response	147 days
COc1ccc([C@@H](O)c2cc(-c3ncnc4cc(N5CCOCC5)ccc34)c(F)cc2Cl)nn1		RECIST version 1.1	patients, advanced solid tumours	100 mg twice daily, together with: avelumab	relative to: patients	objective response rate	0%
O=C(O)CCc1nccc2c1[nH]c1ccccc12			male mouse, acute hyperuricaemia model, serum	oral, 2 mg/kg, 4 h		serum uric acid	484 ± 86.3 µM
N#Cc1ccc2c(c1)[C@H]1CCCN(C(=O)c3ccc4[nH]cnc4c3)[C@H]1C2			T2DM patients with overweight or obesity, plasma	oral, 40 mg, day 15 (360 h), multiple dosing, mean		plasma 1,5-anhydroglucitol	11.3 µg/mL
[Cl-].[Cl-].[Pt+2].[Ru+2].c1ccc(-c2nccnc2-c2ccccn2)nc1.c1cnc2c(c1)ccc1cccnc12.c1cnc2c(c1)ccc1cccnc12		chloride substitution, UV-vis kinetics	aqueous buffer	pH 7.2, 35 °C, second substitution step, together with: guanosine 5'-monophosphate		activation free energy	88 ± 2 kJ/mol
CC(NC(=O)c1ccccc1/N=C/c1c(O)ccc2ccccc12)c1ccccc1 (stereo not drawn)	OCI-Ly1			0.5 µM, 120 h		viability	88.6%
[Cl-].[Cl-].[Pt+2].[Ru+2].c1ccc(-c2nc3cc4ccccc4cc3nc2-c2ccccn2)nc1.c1cnc2c(c1)ccc1cccnc12.c1cnc2c(c1)ccc1cccnc12				concentration not given, second substitution step, together with: thiourea		activation enthalpy	39 ± 3 kJ/mol
CO[C@H]1CC[C@H](N2C(=O)CNc3ncc(-c4ccc(C(C)(C)O)nc4)nc32)CC1		flow cytometry	stimulated B cells, human, blood	60 mg single dose, 5 h, median	relative to: baseline	pS6RP change from baseline	-73.3%
CC(C)(O)c1coc(S(=O)(=O)NC(=O)c2cc3ccccc3n2Cc2ccc(Br)c3ccccc23)c1			mouse, acute hyperuricemia model	dose not given		serum uric acid	178 µM and 546 µM and 261 µM and 498 µM and 311 µM
N#Cc1ccc2c(c1)[C@H]1CCCN(C(=O)c3ccc4[nH]cnc4c3)[C@H]1C2			human, Phase II trial	oral, 240 mg once daily, day 28, adjusted mean, SE		HbA1c change from baseline	0.11%
N#Cc1ccc2c(-c3ccncc3)c(-c3ccc(F)cc3)nn2c1		kinase binding, competitor, MIB/MS competition, measured: YAK1	Candida albicans cell lysate	1 µM	relative to: DMSO	log2 fold change	0.0417
O=C(O)/C=C/c1nccc2c3ccccc3n(Cc3ccc(C4CC4)c4ccccc34)c12			mouse, acute hyperuricaemia model	oral, 2 mg/kg		serum uric acid	391 µM
CC(C(=O)Nc1cccc(/N=C/c2c(O)ccc3ccccc23)c1)c1ccccc1 (stereo not drawn)	OCI-Ly1			0.5 µM, 120 h		viability	167%
COc1ccc(-c2cncc(N[C@@H](C)c3cccc(NC(=O)c4cncc(C)c4)c3)n2)cc1OC		measured: rno-miR-323-3p	rat SU5416/hypoxia model, lung	dose not given	relative to: SU5416/hypoxia vehicle	fold change	1.29
O=C(O)CCc1nccc2c3ccccc3n(Cc3ccc(Br)cc3)c12			mouse, acute hyperuricaemia model, serum	oral, 2 mg/kg, individual animal data		serum uric acid	517 µM and 278 µM and 492 µM and 437 µM
CC(C)NCC(O)c1ccc(O)c(O)c1 (stereo not drawn)			ventricular cardiomyocytes, C57BL/6 mouse	dose not given, 0.136 s		sarcomere length	1.63 µm
O=C(COc1ccc(Cl)cc1)NC12CC(c3nnc([C@H]4C[C@@H](OC(F)(F)F)C4)o3)(C1)C2			healthy human, PBMC	45 mg once daily, day 14, 4 h post-dose, median, together with: sodium arsenite ex vivo	relative to: baseline	ATF4 protein change	-44.5%
N=C(N)NCCC[C@H](NC(=O)[C@H](CCCNC(=N)N)NC(=O)[C@H](CCCCN)NC(=O)[C@H](CCC(N)=O)NC(=O)[C@H](CCCCN)NC(=O)[C@H](Cc1ccc(O)cc1)NC(=O)[C@@H](N)CCCCN)C(=O)N[C@@H](CO)C(=O)N[C@@H](Cc1ccc(O)cc1)C(=O)N[C@@H](CCCCN)C(=O)O			dentin hypersensitivity patients	5 µg/tooth, day 36 post-study visit, two teeth per subject, unit not given	relative to: baseline	VAS change	-24.1 ± 24.4
NC(=O)c1cnc2[nH]ccc2c1N[C@@H]1[C@@H]2CC3C[C@H]1C[C@@](O)(C3)C2		flow cytometry	Japanese healthy men, blood	oral, 10 mg twice daily, 72 h after day 7 dose	relative to: baseline	CD4+ central memory change	-0.43%
CC(C)c1cccc2c(-c3ccccc3)cc(-c3ccc(-c4ccc(C(=O)O)cc4)[nH]3)nc12			CD-1 mouse, male	oral, 5 mg/kg, 7 days dosing, 4 weeks after last dose		testis weight	0.13 ± 0.02 g
C[C@H](Oc1ccc(Br)cc1-c1ccon1)C(=O)O		muscle velocity recovery cycle	human, tibialis anterior muscle	200 mg once daily, first response peak at 30 Hz, multiple ascending dose		difference from placebo	0.747%
CSCCNc1nc(SCCC(F)(F)F)nc2c1ncn2[C@@H]1O[C@H](COP(=O)(O)OP(=O)(O)C(Cl)(Cl)P(=O)(O)O)[C@@H](O)[C@H]1O		ADP-induced platelet aggregation, light transmittance aggregometry	human patients, platelet-rich plasma	dose not given, 15 min, aggregation above 59%, together with: ADP 20 µM	relative to: patients	high residual platelet reactivity	57.5%
C[C@@H](O)CCOC(=O)C[C@@H](C)O		measured: C5:1 acylcarnitine	human, plasma	60 min, log2-transformed values		metabolite level	-4.31 ± 0.28 µmol/L

Excerpt of the above:
Compound	target or system	assay	test system	setting	scale	quantity	result
C=Cc1ccccc1B(O)O		iEDDA reaction	methanol/water	21 °C, together with: tetrazine		activation free energy ΔG‡	84.2 kJ/mol
CC(C)C[C@H](NC(=O)[C@@H](Cc1c[nH]c2ccccc12)NC(=O)[C@H](Cc1ccc(O)cc1)NC(=O)[C@H](CO)NC(=O)[C@H](Cc1c[nH]c2ccccc12)NC(=O)[C@H](Cc1c[nH]cn1)NC(=O)[C@@H]1CCC(=O)N1)C(=O)N[C@@H](CCCNC(=N)N)C(=O)N1CCC[C@H]1C(=O)NCC(N)=O			Chinese children, central precocious puberty, serum	intramuscular, 22.5 mg day 1, month 6, month 3		basal FSH level	1.16 IU/L
NC(=O)c1cnc2[nH]ccc2c1N[C@@H]1[C@@H]2CC3C[C@H]1C[C@@](O)(C3)C2		flow cytometry	Japanese healthy men, blood	oral, 10 mg twice daily, 72 h after day 7 dose	relative to: baseline	CD4+ central memory change	-0.43%
O=C(O)CCc1nccc2c3ccccc3n(Cc3ccc(Br)cc3)c12			mouse, acute hyperuricaemia model, serum	oral, 2 mg/kg, individual animal data		serum uric acid	517 µM and 278 µM and 492 µM and 437 µM
Cc1cc(C)c(CNC(=O)c2cc(Cl)c3c(c2C)O[C@@](C)([C@H]2CC[C@H](N(C)C)CC2)O3)c(=O)[nH]1		IWG criteria, CR or PR or SD	relapsed/refractory PTCL-NOS patients	dose not given		disease control rate	62%
C=CCn1c(=O)c2cnc(Nc3ccc(N4CCN(C)CC4)cc3)nc2n1-c1ccc2c(n1)[C@@](O)(CC)CC2			BALB/c nude mouse, LoVo xenograft	oral, 80 mg/kg once daily, 5 d on 2 d off ×3, day 24	relative to: vehicle	tumour volume	74.5%
